Assay results gathered from unrelated publications.
Protocols differ between the studies behind these lines.
CDK14: Cyclin-dependent kinase 14 (CDK14, Homo sapiens, UniProt O94921)
CDK14 with cyclin Y: Cyclin-dependent kinase 14, with cyclin Y (CDK14, Homo sapiens, UniProt O94921)

| SMILES | target | test | setting | how to read | measurement | result |
| --- | --- | --- | --- | --- | --- | --- |
| CNC1C[S+]2CC[S+]3CC[S+](C1)[Ru-4]321([N]=C=S)[n]2c3ccc(OC)cc3c3c4c(c5cc(F)c[n+]1c5c32)C(=O)NC4=O (stereo not drawn) | CDK14 | KinomeScan | 0.1 µM | reference: untreated | remaining binding | 95% |
| Cc1ccc(-c2c(/C=C(\C#N)C(=O)NC(C)C)n(CCCO)c3ncnc(N)c23)cc1 | CDK14 | cell-free assay, competition with immobilised ligand | 1 µM |  | remaining binding | 94% |
| CNC(=O)C[C@H](Cc1ccc(C#N)cc1)NC(=O)c1cc(-c2ccc(CN[C@H](C)c3ccc(C)cc3)o2)ccc1Cl | CDK14 with cyclin Y | enzyme activity, inhibitor | 1 µM |  | activity vs control | 105% |
| Nc1ncc2c(n1)-c1c([nH]c3ccc(C4=CCOCC4)cc13)CCC2 | CDK14 | binding, competition with immobilised ligand | 1 µM |  | remaining binding | 100% |
| C=CC(=O)N1CCCC(n2c(=O)c3ncccc3n(Cc3ccc(Oc4ccccc4)cc3)c2=O)C1 (stereo not drawn) | CDK14 | cell-free assay, competition with immobilised ligand | 1 µM |  | remaining binding | 98% |
| CCn1cc(C(=O)O)c(=O)c2c(N)c(F)c(NC3CCCCC3)cc21 | CDK14 with cyclin Y | kinase activity | 0.1 µM, with: ATP at Km |  | inhibition | 10.8% |
| CNC(=O)C1CCN(c2cc(C)c(F)cc2NC(=O)c2ccc(-c3cc(O)ccc3C)c(C)c2)CC1 | CDK14 | binding, competition with immobilised ligand | 1 µM |  | remaining binding | 96% |
| COc1c(Cl)cccc1Nc1c(-c2ccncc2C#C[C@@]2(C)CCCN2C(=O)/C=C/CN(C)C)[nH]c2c1C(=O)NCC2 | CDK14 | binding, competition with immobilised ligand | 3 µM |  | remaining binding | 94% |
| Cc1cnc2nc1Nc1cccc(c1)COC/C=C/COCc1cc(ccc1OCCN1CCOCC1)N2 | CDK14 |  | concentration not given, gene name PFTK1 |  | percent of control | 97% |
| COc1cc(Nc2nc(C)cc(-c3cnn4nc(OC)ccc34)n2)cc(C(F)(F)F)c1 | CDK14 | inhibitor | 1 µM, PFTK1 | reference: control | remaining activity | 87% |
| O=C(Cc1ccc(OCc2ccccc2)cc1)NC1(C(=O)O)CCN(C(=O)c2ccc(-c3cccc(Cl)c3)cc2)CC1 | CDK14 with cyclin Y | enzyme activity, inhibitor | 10 µM |  | activity vs control | 102% |
| CN1CCN(Cc2ccc(-c3ccc(CO[C@H]4CCC[C@@H]4NC(=O)c4cc(-c5cnn(C)c5)cnc4N)cc3)cc2)CC1 | CDK14 with cyclin Y | enzyme activity, inhibitor | 0.1 µM |  | inhibition | 2% |
| C=CC(=O)N1Cc2nc(-c3cc(-c4cc(Cl)cnc4Cl)c(F)cc3F)n(-c3ccncn3)c2C1 | CDK14 with cyclin Y | cell-free assay, inhibitor | 1 µM |  | inhibition | 0.2% |
| CN1CC[C@@H](COc2cnc(C#N)cc2-c2ccn3nc(NC(=O)C4CC4)cc3c2)C1 | CDK14 with cyclin Y | enzyme activity, inhibitor | 1 µM |  | inhibition | -12% |
| COc1cc(Nc2nccc(-c3cnn4nc(OC)ccc34)n2)cc(C(F)(F)F)c1 | CDK14 | binding, competition with immobilised ligand | 1 µM |  | remaining binding | 79% |
| C=CC(=O)N1CCc2ccc(-n3c(=O)ccc4cnc5ccc(-c6cnn(C)c6)cc5c43)cc21 | CDK14 | KINOMEscan | 1 µM | reference: DMSO control | remaining binding | 96% |
| CCN1CCN(Cc2ccc(C(=O)Nc3ccc(C)c(NCc4cnc5[nH]ccc5c4OC)c3)cc2C(F)(F)F)CC1 | CDK14 | binding, competition with immobilised ligand | 1 µM |  | remaining binding | 98% |
| CC(C)=CC1OC(C)(C)C2C=C3C(=O)C(Cl)=CC(O)C3C3C(O)C4OC4C(=O)C132 (stereo not drawn) | CDK14 | cell-free assay, competition with immobilised ligand | 10 µM |  | remaining binding | 95% |

Excerpt of the above:
| SMILES | target | test | setting | how to read | measurement | result |
| --- | --- | --- | --- | --- | --- | --- |
| CNC(=O)C1CCN(c2cc(C)c(F)cc2NC(=O)c2ccc(-c3cc(O)ccc3C)c(C)c2)CC1 | CDK14 | binding, competition with immobilised ligand | 1 µM |  | remaining binding | 96% |
| C=CC(=O)N1Cc2nc(-c3cc(-c4cc(Cl)cnc4Cl)c(F)cc3F)n(-c3ccncn3)c2C1 | CDK14 with cyclin Y | cell-free assay, inhibitor | 1 µM |  | inhibition | 0.2% |
